# Published values of several laboratories.
# Lines come from different studies, so protocols differ. ± gives the spread as reported.
Compound,test,system,setting,how to read,endpoint,value
C=C(NC(=O)c1csc(-c2nc3c(cc2O)-c2nc(cs2)C(=O)NC(C(C)O)C(=O)NC(=C(C)OC)c2nc(cs2)C(=O)NC2c4nc(cs4)C(=O)NC(COC(=O)c4c5c6c(cccc6n4O)COC(=O)C(OC4CC(C)(O)C(N(C)C)C(C)O4)C2OC5)c2nc-3cs2)n1)C(N)=O (stereo not drawn),,"ICR mice, Streptococcus pneumoniae ATCC 49169 infected, immunocompromised, blood","intravenous, 32 mg/kg/day three times daily",,half-life,2.63 h
COc1ccc2c(c1)CCn1c[n+]3c(c1-2)-c1ccc(OC)cc1CC3,,"female NSG mice, blood","6 mg/kg, day 20, 5 days per week",,mean corpuscular haemoglobin,15.7 ± 0.85 pg
C/C(N)=N/C(=N\S(=O)(=O)c1ccc(C(F)(F)F)cc1)N1C[C@H](c2ccccc2)C(c2ccc(Cl)cc2)=N1,,"female cynomolgus monkey, plasma","oral, 6 mg/kg",,half-life,11.4 h
Cc1nc(N)nc2c1C(=O)N[C@@H](c1ccc(F)cc1-c1cccc(O[11CH3])n1)C2,ex vivo biodistribution,"mice, MDA-MB-231 subcutaneous xenograft, brain","60 min post-injection, baseline, vehicle pre-treatment",,SUV,1.9 ± 0.4
Cc1nc(N)nc2c1C(=O)N[C@@H](c1ccc(F)cc1-c1cccc(OCC[18F])n1)C2,ex vivo biodistribution,"C57BL/6 mouse, blood cells","intravenous, 1 MBq, 30 min, baseline, vehicle",,SUV,0.72 ± 0.02
CN1CCC[C@]1(C)/C=C/S(=O)(=O)NC(=O)Nc1c2c(cc3c1CCC3O)CCC2 (stereo partly drawn),,"human, plasma","oral, 12.5 mg twice daily of parent drug, day 1, metabolite of dosed drug",,AUC(0-24),146 µg·h/mL
CC(C)(O)c1ncc([S@](N)(=O)=NC(=O)Nc2c3c(cc4c2CCC4)CCC3)s1,refers to: infections and infestations,healthy human,"oral, dose not given, 14 days, all active multiple doses pooled",,subjects with TEAEs,10%
CN1CCC[C@]1(C)/C=C/S(=O)(=O)NC(=O)Nc1c2c(cc3c1CCC3)CC=C2,,"human, plasma","oral, 12.5 mg twice daily of parent drug, metabolite of dosed drug",reference: day 14 over day 1,AUC(0-24) accumulation ratio,1.7
N[C@@H](CC(=O)O)C(=O)OC(C(=O)O)c1ccc(Br)cc1[N+](=O)[O-] (mixture of isomers),"1H NMR, dark",50 mM sodium phosphate,"concentration not given, pH 7.0, room temperature, 12.5% DMSO-d6",,"hydrolysis half-life, A isomer",10.2 ± 0.1 h
CC[C@H](C)[C@@H](C(=O)N[C@@H](CC(C)C)C(=O)N[C@@H](CO)C(=O)N[C@@H](CO)C(=O)N[C@H](C(=O)N[C@@H](CCC(=O)O)C(=O)N[C@H](C(=O)NCC(=O)N[C@@H](CO)C(=O)N[C@@H](CC(N)=O)C(=O)N[C@H](C(=O)N1C[C@H](O)C[C@H]1C(N)=O)[C@@H](C)O)C(C)C)[C@@H](C)O)N(C)C(=O)[C@H](C)NC(=O)CN(C)C(=O)[C@H](Cc1ccccc1)NC(=O)[C@H](CO)NC(=O)[C@H](CO)NC(=O)[C@H](CCCNC(=N)N)NC(=O)[C@H](CCC(N)=O)NC(=O)[C@H](CC(C)C)NC(=O)[C@H](Cc1ccccc1)NC(=O)[C@H](CCCC(=O)O)NC(=O)[C@H](C)NC(=O)[C@H](CC(C)C)NC(=O)[C@H](CCCNC(=N)N)NC(=O)[C@H](CCC(=O)O)NC(=O)[C@@H](NC(=O)[C@H](C)NC(=O)[C@@H]1CCCCNC(=O)C[C@H](NC(=O)[C@H](CCCNC(=N)N)NC(=O)CC[C@H](NC(=O)CCCCCCCCCCCCCCCCCCC(=O)O)C(=O)O)C(=O)NCC(=O)N[C@@H]([C@@H](C)O)C(=O)N[C@@H](C)C(=O)N[C@@H]([C@@H](C)O)C(=O)N1)[C@@H](C)O,DLS,"Tris buffer, mannitol, NaCl","pH 6.6, 25 °C",,particle size,2 to 4 nm
CN(CCNCc1ccncc1O)CCNCc1ccncc1O,potentiometric titration,aqueous KCl solution,"1 mM, 25 °C, 0.1 M KCl",,protonation constant logK1H,9.8
Cc1noc(C)c1Cn1cc(N2C(=O)CN(Cc3cccc(O[C@@H]4O[C@H](C(=O)O)[C@@H](O)[C@H](O)[C@H]4O)c3)C2=O)cn1,,"rat Sprague-Dawley male, plasma","oral, 100 mg/kg of parent drug, 0.5 h",,plasma concentration,166 ± 46.9 ng/mL
CC(C)CCCC(C)C1CCC2C3CC=C4CC(OC(=O)NCCOCCOCCOCCn5cc(CN(CCCNC(=O)c6ccc(C(=O)[O-])c(-c7c8ccc(=O)cc-8oc8cc(O)ccc78)c6)CCCNc6ncnc7c6ncn7C6OC(COP(=O)(O)OP(=O)(O)OP(=O)(O)OCC7OC(n8c[n+](C)c9c(O)nc(N)nc98)C(O)C7O)C(O)C6O)nn5)CCC4(C)C3CCC12C (stereo not drawn),fluorescence correlation spectroscopy,water,36 °C,,hydrodynamic radius,2 nm
CCCCN1C(=O)c2cccc3c(NCCCCN4CCOCC4)ccc(c23)C1=O,,"1,4-dioxane",,,fluorescence quantum yield,0.48
O=C(Nc1cnccc1-c1ccc([18F])nc1)c1ccnc(NC(=O)C2CC2)c1,,"FVB/NJ mouse, both sexes, brain","intravenous, 40 min",,SUV,0.045
CCCCCC(O)C=CC1OC2OC(C2F)C1CC=CCCCC(=O)O (stereo not drawn),,50 mM phosphate buffer with DMSO,"concentration not given, pH 7.40",,hydrolysis half-life,490 h
O=C(NCC1OC2CCC=CCCC2O1)c1ccc([18F])nc1 (stereo not drawn),,"healthy female BALB/c nude mice, liver","intravenous, 7.4 MBq per mouse, 2 min",,tissue uptake,11.2 ± 1.7 %ID/g
C=CC(=O)Nc1cc(Nc2nccc(-c3cn(C)c4ccccc34)n2)c(OC)cc1N(C)CCNC,,"human, dried blood spots","72 h, on ice, high QC level",,remaining compound,70%
CCOC(=O)[C@H](Cc1ccc(OC)cc1)NC(=O)c1ccc(C2CC2)c(Cc2ccc(F)cc2)n1,,aqueous buffer with DMSO,,,kinetic solubility,1.6 µg/mL
CCC1=[N+]2N=C(c3ccccc3)C(=O)O[B-]2(c2ccccc2)Oc2cc(OC)ccc21 (stereo not drawn),UV/vis decay,aqueous buffer,,,hydrolysis activation energy,22 kcal/mol
O=C(NS(=O)(=O)c1cccs1)c1cc2ccccc2n1Cc1ccc(Br)c2ccccc12,,"Sprague-Dawley rat, male","oral, dose not given, 0.25 h",,plasma concentration,2520 ng/mL
[123I]c1ccc2nc(-c3ccc(-n4ccnn4)nc3)cn2c1,,"male Wistar rat, bone","intravenous, 4 MBq, 6 h",,tracer uptake,0.051 %ID/g
O=C(Nc1cnccc1-c1ccc([18F])cc1)c1ccnc(NC(=O)C2CC2)c1,,"mice, transgenic, GSK-3β, early-stage, hippocampus","intravenous, dose not given, 120 min",,SUV,0.03
N#Cc1ccnc(N2C(=O)CC[C@H]2C(=O)N(c2cncc(F)c2)[C@H](C(=O)NC2CC(F)(F)C2)c2ccccc2Cl)c1,,"cynomolgus monkey, plasma","oral, 10 mg/kg",,bioavailability,49%
O=C(NCC(F)(F)F)c1cccc(N2Cc3cn(Cc4ccc(F)cc4)nc3C2)c1,metabolic stability,"human, liver microsomes",,,half-life,6.1 h
Cc1cccc(-c2ccc3nc(N)nn3c2)c1,,mouse liver microsomes,30 min,,metabolic turnover,31%
CC(=O)N([O-])CCCCCNC(=O)CCC(=O)N([O-])CCCCCNC(=O)CCC(=O)N([O-])CCCCCN.[89Zr+4],,"mouse, pancreas",24 h,,tracer uptake,0.03 %ID/g

# For quick reference, copied from above:
Compound,test,system,setting,how to read,endpoint,value
N[C@@H](CC(=O)O)C(=O)OC(C(=O)O)c1ccc(Br)cc1[N+](=O)[O-] (mixture of isomers),"1H NMR, dark",50 mM sodium phosphate,"concentration not given, pH 7.0, room temperature, 12.5% DMSO-d6",,"hydrolysis half-life, A isomer",10.2 ± 0.1 h
CC[C@H](C)[C@@H](C(=O)N[C@@H](CC(C)C)C(=O)N[C@@H](CO)C(=O)N[C@@H](CO)C(=O)N[C@H](C(=O)N[C@@H](CCC(=O)O)C(=O)N[C@H](C(=O)NCC(=O)N[C@@H](CO)C(=O)N[C@@H](CC(N)=O)C(=O)N[C@H](C(=O)N1C[C@H](O)C[C@H]1C(N)=O)[C@@H](C)O)C(C)C)[C@@H](C)O)N(C)C(=O)[C@H](C)NC(=O)CN(C)C(=O)[C@H](Cc1ccccc1)NC(=O)[C@H](CO)NC(=O)[C@H](CO)NC(=O)[C@H](CCCNC(=N)N)NC(=O)[C@H](CCC(N)=O)NC(=O)[C@H](CC(C)C)NC(=O)[C@H](Cc1ccccc1)NC(=O)[C@H](CCCC(=O)O)NC(=O)[C@H](C)NC(=O)[C@H](CC(C)C)NC(=O)[C@H](CCCNC(=N)N)NC(=O)[C@H](CCC(=O)O)NC(=O)[C@@H](NC(=O)[C@H](C)NC(=O)[C@@H]1CCCCNC(=O)C[C@H](NC(=O)[C@H](CCCNC(=N)N)NC(=O)CC[C@H](NC(=O)CCCCCCCCCCCCCCCCCCC(=O)O)C(=O)O)C(=O)NCC(=O)N[C@@H]([C@@H](C)O)C(=O)N[C@@H](C)C(=O)N[C@@H]([C@@H](C)O)C(=O)N1)[C@@H](C)O,DLS,"Tris buffer, mannitol, NaCl","pH 6.6, 25 °C",,particle size,2 to 4 nm
CN(CCNCc1ccncc1O)CCNCc1ccncc1O,potentiometric titration,aqueous KCl solution,"1 mM, 25 °C, 0.1 M KCl",,protonation constant logK1H,9.8
